Assay results of several laboratories.
Each line is one published result; not all experiments were run side by side. Several values in a cell are separate wells, animals, samples, runs or records. ± marks the error that the study gave.

O=c1n(CCNCCOS(=O)(=O)c2ccccc2)c(=O)n(S(=O)(=O)c2ccccc2)c(=O)n1S(=O)(=O)c1ccccc1
viability (HUVEC; cell growth or viability, MTT; 200 µg/mL, 48 h): 17.9%

CNC(=O)C[C@H](Cc1ccncc1)NC(=O)[C@@H](Cc1cccc(Br)c1)NC(=O)[C@@H](N)Cc1ccsc1
viability (Huh-7-ACE2; CellTiter-Glo; 12.5 µM, 48 h, unit not given; reference: DMSO): 1.15 and 1.05 and 1.09

CC(=O)N[C@@H](Cc1c[nH]c2ccccc12)C(=O)NCCCCCCCCCCCC(=O)NCCCC[C@@H]1NC(=O)[C@H](CCCNC(=N)N)NC(=O)[C@H](CCCNC(=N)N)NC(=O)[C@H](CCCNC(=N)N)NC(=O)[C@H](CCCNC(=N)N)NC(=O)[C@H](CCCNC(=N)N)NC1=O
viability (CCRF-CEM; MTS; up to 10 µM, 24 h): ≥ 89%

Cc1n[nH]c(C)c1CCCOc1cc(OCCCCCCNCCOCCOCCn2cc(CNc3ccc(C(=O)O)cc3)nn2)cc(C(=O)O)c1
viability (MCF7; cell growth or viability, MTT; 100 µM, 72 h): 104% and 111% and 90%

NC(=O)N/N=C/c1ccc(OCc2ccccc2)cc1
viability (IMR-32; MTT; 300 µg/mL, 24 h; reference: untreated control): 30.3%

CC[C@H](C)[C@H](NC(=O)[C@H](C)NC(=O)[C@H](CCCCN)NC(=O)[C@H](CC(C)C)NC(=O)[C@@H](N)Cc1ccccc1)C(=O)N[C@@H](CCCCN)C(=O)N[C@@H](CCCCN)C(=O)N[C@@H](Cc1ccccc1)C(=O)NCC(=O)N[C@@H](CCCCN)C(=O)N[C@@H](CCC(=O)O)C(=O)N[C@@H](Cc1ccccc1)C(=O)N[C@@H](CCCCN)C(=O)N[C@@H](CCCCN)C(=O)N[C@H](C(=O)NCC(=O)N[C@@H](C)C(=O)N[C@@H](CCCCN)C(=O)N[C@@H](CC(C)C)C(=O)N[C@@H](CCCCN)C(=O)O)[C@@H](C)CC
viability (HaCaT; cell growth or viability, MTT; 16 µg/mL): 91.5%

O=C1NC2(CC2)COc2ncc(F)cc2[C@H]2COCCN2c2ccn3ncc1c3n2
organ weight (Sprague-Dawley rat, female, spleen; oral, 5 mg/kg/day, 4 weeks): 1.08 ± 0.146 g

CNC(=O)C[C@H](Cc1ccc(F)cc1)NC(=O)[C@@H](Cc1ccc(Cl)cc1Cl)NC(=O)[C@H](N)Cc1ccccc1C#N
viability (Huh-7-ACE2; CellTiter-Glo; 0.0122 µM, 48 h, unit not given; reference: DMSO): 0.934 and 1.05 and 1.04

CC[C@H](C)[C@H](NC(=O)[C@H](C)NC(=O)[C@H](CCCCN)NC(=O)[C@H](CCCCN)NC(=O)[C@@H](N)CCCNC(=N)N)C(=O)N[C@@H](CCCCN)C(=O)N[C@@H](CC(C)C)C(=O)N[C@H](C(=O)N[C@@H](CCCCN)C(=O)N[C@@H](CCCCN)C(=O)N[C@@H](CC(C)C)C(=O)N[C@H](C(=O)N[C@@H](CCCCN)C(=O)N[C@@H](CCCCN)C(=O)N[C@@H](CC(C)C)C(=O)N[C@@H](CCCCN)C(=O)N[C@@H](CCCCN)C(=O)N[C@@H](C)C(=O)N[C@@H](CC(C)C)C(=O)N[C@@H](CCCCN)C(=O)O)C(C)C)C(C)C
viability (HaCaT; cell growth or viability, MTT; 8 µg/mL): 91.4%

CNC(=O)CC[C@H](Cc1ccccc1)NC(=O)[C@@H](Cc1ccc(Cl)cc1Cl)NC(=O)[C@H](N)Cc1ccccc1[N+](=O)[O-]
viability (Huh-7-ACE2; CellTiter-Glo; 0.781 µM, 48 h, unit not given; reference: DMSO): 0.989 and 0.912 and 0.939

COC(=O)c1cc2c(=O)n3ccccc3nc2n1Cc1ccccc1
viability (Vero; MTT; 1.6 µM, 24 (unit not given)): 78.9%

Repeated from above:
CC[C@H](C)[C@H](NC(=O)[C@H](C)NC(=O)[C@H](CCCCN)NC(=O)[C@H](CC(C)C)NC(=O)[C@@H](N)Cc1ccccc1)C(=O)N[C@@H](CCCCN)C(=O)N[C@@H](CCCCN)C(=O)N[C@@H](Cc1ccccc1)C(=O)NCC(=O)N[C@@H](CCCCN)C(=O)N[C@@H](CCC(=O)O)C(=O)N[C@@H](Cc1ccccc1)C(=O)N[C@@H](CCCCN)C(=O)N[C@@H](CCCCN)C(=O)N[C@H](C(=O)NCC(=O)N[C@@H](C)C(=O)N[C@@H](CCCCN)C(=O)N[C@@H](CC(C)C)C(=O)N[C@@H](CCCCN)C(=O)O)[C@@H](C)CC
viability (HaCaT; cell growth or viability, MTT; 16 µg/mL): 91.5%
